Published values of several laboratories.
Lines come from different studies, so protocols differ. “And” joins repeats or separate records; there may be more than shown. ± gives the spread as reported.
Chain of UniProt Q5S007 (whole entry, looked up): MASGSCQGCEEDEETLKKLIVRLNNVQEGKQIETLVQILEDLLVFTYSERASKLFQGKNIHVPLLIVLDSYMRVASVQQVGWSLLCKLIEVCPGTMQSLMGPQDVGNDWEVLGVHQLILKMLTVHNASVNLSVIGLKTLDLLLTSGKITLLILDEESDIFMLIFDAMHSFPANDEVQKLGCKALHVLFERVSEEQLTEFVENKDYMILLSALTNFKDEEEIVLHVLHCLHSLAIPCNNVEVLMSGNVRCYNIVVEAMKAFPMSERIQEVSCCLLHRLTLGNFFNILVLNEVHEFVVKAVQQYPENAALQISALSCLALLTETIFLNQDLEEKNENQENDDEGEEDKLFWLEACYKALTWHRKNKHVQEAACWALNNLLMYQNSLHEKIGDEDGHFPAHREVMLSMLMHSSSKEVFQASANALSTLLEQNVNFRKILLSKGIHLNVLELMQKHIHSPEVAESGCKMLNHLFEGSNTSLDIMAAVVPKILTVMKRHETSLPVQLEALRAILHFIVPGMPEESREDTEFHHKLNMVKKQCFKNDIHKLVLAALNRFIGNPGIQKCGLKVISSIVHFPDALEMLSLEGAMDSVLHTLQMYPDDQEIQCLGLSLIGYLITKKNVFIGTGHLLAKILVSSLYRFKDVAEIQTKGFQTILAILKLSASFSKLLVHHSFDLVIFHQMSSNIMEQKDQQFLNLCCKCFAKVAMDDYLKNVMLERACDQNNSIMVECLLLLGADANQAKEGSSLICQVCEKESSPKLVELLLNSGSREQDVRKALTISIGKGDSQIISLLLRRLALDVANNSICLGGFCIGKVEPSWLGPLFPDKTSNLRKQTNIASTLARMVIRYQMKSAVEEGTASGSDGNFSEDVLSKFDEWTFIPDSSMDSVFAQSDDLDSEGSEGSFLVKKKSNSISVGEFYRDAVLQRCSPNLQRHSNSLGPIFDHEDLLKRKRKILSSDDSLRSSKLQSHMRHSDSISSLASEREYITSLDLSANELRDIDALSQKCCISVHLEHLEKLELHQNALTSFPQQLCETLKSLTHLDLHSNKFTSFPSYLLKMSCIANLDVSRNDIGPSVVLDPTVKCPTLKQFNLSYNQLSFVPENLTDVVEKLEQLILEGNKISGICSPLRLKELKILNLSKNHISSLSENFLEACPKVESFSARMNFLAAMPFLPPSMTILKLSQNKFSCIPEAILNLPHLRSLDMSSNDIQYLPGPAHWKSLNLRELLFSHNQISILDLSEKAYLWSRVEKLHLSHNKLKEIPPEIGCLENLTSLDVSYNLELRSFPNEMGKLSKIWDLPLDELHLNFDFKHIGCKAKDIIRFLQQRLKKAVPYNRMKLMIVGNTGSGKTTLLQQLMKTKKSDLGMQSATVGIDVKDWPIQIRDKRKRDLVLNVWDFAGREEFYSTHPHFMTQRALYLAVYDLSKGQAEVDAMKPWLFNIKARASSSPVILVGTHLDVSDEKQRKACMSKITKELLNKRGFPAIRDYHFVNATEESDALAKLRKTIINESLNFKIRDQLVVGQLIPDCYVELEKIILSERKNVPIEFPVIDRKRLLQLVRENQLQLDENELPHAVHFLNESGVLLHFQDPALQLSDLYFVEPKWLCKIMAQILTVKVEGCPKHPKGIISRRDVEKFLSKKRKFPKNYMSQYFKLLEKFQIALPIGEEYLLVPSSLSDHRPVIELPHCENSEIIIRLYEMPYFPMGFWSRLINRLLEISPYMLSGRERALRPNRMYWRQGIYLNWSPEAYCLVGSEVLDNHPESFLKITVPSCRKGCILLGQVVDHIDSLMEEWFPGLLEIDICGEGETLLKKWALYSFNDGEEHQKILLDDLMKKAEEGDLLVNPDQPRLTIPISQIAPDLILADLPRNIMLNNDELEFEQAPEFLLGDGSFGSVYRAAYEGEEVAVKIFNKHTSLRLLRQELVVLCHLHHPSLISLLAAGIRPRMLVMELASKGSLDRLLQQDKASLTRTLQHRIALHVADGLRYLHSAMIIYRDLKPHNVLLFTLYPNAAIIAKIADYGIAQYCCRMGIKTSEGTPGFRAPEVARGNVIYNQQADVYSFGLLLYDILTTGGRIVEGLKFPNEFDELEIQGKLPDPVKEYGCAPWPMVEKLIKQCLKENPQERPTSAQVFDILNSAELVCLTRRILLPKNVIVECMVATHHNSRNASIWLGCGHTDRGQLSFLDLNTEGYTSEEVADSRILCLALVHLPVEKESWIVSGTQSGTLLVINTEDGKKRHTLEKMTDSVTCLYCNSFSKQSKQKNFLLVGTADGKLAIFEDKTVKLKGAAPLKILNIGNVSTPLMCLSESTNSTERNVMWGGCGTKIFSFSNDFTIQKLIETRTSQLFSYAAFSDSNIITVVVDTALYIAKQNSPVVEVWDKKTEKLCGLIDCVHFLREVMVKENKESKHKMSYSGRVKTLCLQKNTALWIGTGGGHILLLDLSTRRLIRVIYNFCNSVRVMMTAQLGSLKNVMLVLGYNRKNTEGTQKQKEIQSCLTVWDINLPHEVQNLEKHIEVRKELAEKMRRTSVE
Chain of UniProt Q16584 (whole entry, looked up): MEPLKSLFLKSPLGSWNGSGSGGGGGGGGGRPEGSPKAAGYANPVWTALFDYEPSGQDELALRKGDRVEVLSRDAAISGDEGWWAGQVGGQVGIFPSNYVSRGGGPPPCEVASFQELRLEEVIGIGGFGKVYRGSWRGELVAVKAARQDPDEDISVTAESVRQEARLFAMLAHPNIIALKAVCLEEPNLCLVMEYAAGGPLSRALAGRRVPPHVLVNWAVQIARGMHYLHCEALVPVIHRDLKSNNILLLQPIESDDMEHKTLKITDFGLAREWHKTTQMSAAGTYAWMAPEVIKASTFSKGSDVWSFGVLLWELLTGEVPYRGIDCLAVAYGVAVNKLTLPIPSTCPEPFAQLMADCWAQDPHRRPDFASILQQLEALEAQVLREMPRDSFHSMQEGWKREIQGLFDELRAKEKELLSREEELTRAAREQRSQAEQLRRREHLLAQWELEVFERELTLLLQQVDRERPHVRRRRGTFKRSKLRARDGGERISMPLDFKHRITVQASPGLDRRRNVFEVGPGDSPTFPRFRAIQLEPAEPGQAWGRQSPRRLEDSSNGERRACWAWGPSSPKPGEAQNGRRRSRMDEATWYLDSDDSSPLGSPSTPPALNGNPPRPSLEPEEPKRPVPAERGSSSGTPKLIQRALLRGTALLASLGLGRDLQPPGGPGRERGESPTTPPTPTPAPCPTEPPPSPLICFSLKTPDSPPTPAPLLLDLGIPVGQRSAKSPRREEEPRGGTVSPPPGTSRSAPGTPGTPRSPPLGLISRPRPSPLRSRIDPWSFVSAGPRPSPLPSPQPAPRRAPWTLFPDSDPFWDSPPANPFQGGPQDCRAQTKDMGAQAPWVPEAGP
Chain of UniProt P52564 (whole entry, looked up): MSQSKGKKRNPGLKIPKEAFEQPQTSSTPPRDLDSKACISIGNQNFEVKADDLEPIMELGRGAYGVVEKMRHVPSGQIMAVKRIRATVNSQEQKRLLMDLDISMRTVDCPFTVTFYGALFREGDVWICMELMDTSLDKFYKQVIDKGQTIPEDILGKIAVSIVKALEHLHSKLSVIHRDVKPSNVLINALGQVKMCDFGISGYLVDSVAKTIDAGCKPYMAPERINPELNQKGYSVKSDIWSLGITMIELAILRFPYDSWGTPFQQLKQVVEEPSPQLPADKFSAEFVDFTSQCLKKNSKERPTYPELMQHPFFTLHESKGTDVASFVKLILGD
Chain of UniProt Q16654 (whole entry, looked up): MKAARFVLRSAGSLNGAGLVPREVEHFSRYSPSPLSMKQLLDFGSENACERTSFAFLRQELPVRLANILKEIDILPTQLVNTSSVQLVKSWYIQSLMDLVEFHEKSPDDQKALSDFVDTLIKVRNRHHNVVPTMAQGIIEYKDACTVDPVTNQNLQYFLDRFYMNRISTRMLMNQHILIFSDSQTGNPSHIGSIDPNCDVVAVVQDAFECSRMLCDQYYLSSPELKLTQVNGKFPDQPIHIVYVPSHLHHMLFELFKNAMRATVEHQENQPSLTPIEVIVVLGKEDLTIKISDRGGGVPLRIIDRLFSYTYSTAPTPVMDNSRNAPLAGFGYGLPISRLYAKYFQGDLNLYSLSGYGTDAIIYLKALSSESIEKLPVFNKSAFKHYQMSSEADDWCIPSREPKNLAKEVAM

COc1ccccc1-c1n[nH]c2nc(N[C@H]3CC[C@H](NS(=O)(=O)CC(C)C)CC3)ncc12
relative abundance (bead binding, competition bead pull-down, refers to: LINJ.35.5450; Leishmania donovani extract; 10 µM; reference: vehicle): 0.91

Cc1ccc(N2CC3CC(C2)N3C)cc1C(=O)NC1(c2ccc3c4c(cccc24)C(=O)N3C)CC1
inhibition (human coronavirus 229E; viral replication; Huh-7; 0.75 µM): 20%

Cc1cc(Oc2nc(N3CC[C@@H](c4ccncc4)C3)ncc2F)[nH]n1
normalised growth (Mycobacterium tuberculosis; OD; H37Rv PurF CRISPRi knockdown; 0.000488 µM, with: anhydrotetracycline low): 66% and 69%

Cc1ccc(NS(=O)(=O)c2c(C(=O)N3CCCCCC3)c(C)n(C)c2C)c(Cl)c1
infection (Fowlpox virus; viral infection; CEF; 0.046 µM; reference: untreated): 107% and 92.7% and 82.7%

Cc1cc(C(=O)Nc2nc3cccc(C)c3n2[C@H]2CCCCN(C(=O)/C=C/CN(C)C)C2)ccn1
cells in sub-G0 phase (Trypanosoma brucei; propidium iodide flow cytometry; bloodstream form; concentration not given, 8 h): 0.96%

COc1ccccc1-c1n[nH]c2nc(NC3CCN(C(=O)Cc4ccc(F)cc4F)CC3)ncc12
relative abundance (bead binding, competition bead pull-down, refers to: LINJ.35.4620; Leishmania donovani extract; 10 µM; reference: vehicle): 0.58

CC(C)(C)C(=O)OCOP(=O)(OCOC(=O)C(C)(C)C)C1CCCN(O)C1=O (stereo not shown)
log GI50 (Hs-578T): -6.5 log M

C#CCN1C(=O)C(CC#C)(C(=O)OCC)Oc2ccccc21 (stereo not shown)
inhibition (HaCaT; cell growth or viability, CCK-8; 100 µM, 72 h): 1.21%

CC(C)CC(C(=O)N1CC2(CC1C#N)C(=O)Nc1ccccc12)N(C)C(=O)c1cc2c(F)cc(F)c(F)c2[nH]1 (stereo not shown)
inhibition (Betacoronavirus 1; viral replication; HCT-8, OC43; 0.25 µM): 98.8%

O=C1NC(=O)c2c1c1cc(F)c[n+]3c1c1c2c2cc(O)ccc2[n]1[Ru-4]312([N]=C=S)[S+]3CC[S+]1CC[S+]2CC3 (stereo not shown)
remaining activity (Dual specificity mitogen-activated protein kinase kinase 6 (MAP2K6, Homo sapiens, UniProt P52564); enzyme activity; 100 nM, human enzyme, with: 10 µM ATP; reference: untreated): 100%

O=C1NC2(CC2)COc2ncc(F)cc2[C@H]2COCCN2c2ccn3ncc1c3n2
serum sodium (Sprague-Dawley rat, female, serum; oral, 20 mg/kg/day, end of recovery, 4-week subacute toxicity): 144 ± 1 mmol/L

CC(C)[C@H]1NC(=O)C[C@H]2/C=C/CCSSC[C@@H](NC1=O)C(=O)N[C@H](Cc1cccc3ccccc13)C(=O)NCC(=O)O2
inhibition ([Pyruvate dehydrogenase (acetyl-transferring)] kinase isozyme 4, mitochondrial (PDK4, Homo sapiens, UniProt Q16654); enzyme activity, inhibitor; 10 µM): 1.6%

CS(C)(=O)=Nc1ccc(-c2ccc(-c3nc4cc(O[C@@H]5CO[C@H]6[C@@H]5OC[C@H]6O)[nH]c4cc3F)cc2)cc1
inhibition (Leucine-rich repeat serine/threonine-protein kinase 2 (LRRK2, Homo sapiens, UniProt Q5S007); enzyme activity, inhibitor; 10 µM): 1%

CN(C)[C@H]1C[C@@]23CC[C@@]4(O2)C(=CC[C@]2(C)[C@@H](c5ccc6ccncc6c5)CC[C@H]24)C=C3[C@@H](O)[C@@H]1O
inhibition (Mitogen-activated protein kinase kinase kinase 11 (MAP3K11, Homo sapiens, UniProt Q16584); ATP probe labelling, inhibitor, KiNativ profiling; 0.1 µM): -4.9%

O=S(=O)(c1ccc(-c2ccc3ncnc(Nc4ccc(OCc5ccc(C(F)(F)F)c(F)c5)c(Cl)c4)c3c2)cc1)N1CCOCC1
EC50 (Plasmodium falciparum; parasite growth, SYBR Green fluorescence; W2, drug-resistant): 1100 nM

CC(C)C[C@@H]1NC(=O)[C@@H](Cc2c[nH]c3ccccc23)NC(=O)[C@H](CCCNC(=N)N)NC(=O)[C@@H](CCC(=O)O)NC(=O)[C@H](CCC(N)=O)NC(=O)[C@@H](CCC(=O)O)NC(=O)[C@H](CCCNC(=N)N)NC(=O)[C@@H](Cc2c[nH]c3ccccc23)NC1=O
cytokine level (refers to: IL2; LDLr-/- mouse on Western diet, liver; dose not given, 4 weeks): 80 ± 24 pg/g tissue

A few entries again:
O=C1NC(=O)c2c1c1cc(F)c[n+]3c1c1c2c2cc(O)ccc2[n]1[Ru-4]312([N]=C=S)[S+]3CC[S+]1CC[S+]2CC3 (stereo not shown)
remaining activity (Dual specificity mitogen-activated protein kinase kinase 6 (MAP2K6, Homo sapiens, UniProt P52564); enzyme activity; 100 nM, human enzyme, with: 10 µM ATP; reference: untreated): 100%
